Measured values pooled from the literature.
Protocols differ between the studies behind these lines.
Organism: Escherichia coli

Structure (SMILES)	test	system	conditions	MIC
CO[C@H]1/C=C/O[C@@]2(C)Oc3c(C)c(O)c4c(O)c(c(/C=N/Nc5c(F)c(F)cc(F)c5F)c(O)c4c3C2=O)NC(=O)/C(C)=C/C=C/[C@H](C)[C@H](O)[C@@H](C)[C@@H](O)[C@@H](C)[C@H](OC(C)=O)[C@H]1C	–	ATCC 25922	–	20 µM
N[C@@H](C(=O)N[C@@H]1C(=O)N2C(C(=O)O)=C(Cl)CS[C@H]12)c1ccccc1	broth microdilution	–	18 h	2 µg/mL
N=C(N)c1cccc(OCc2ccccc2COc2cccc(C(=N)N)c2)c1	–	BW25113	compound alone, rifampicin checkerboard	> 200 µg/mL
O=[N+]([O-])c1ccc(O)c2ncccc12	–	UAMS-1	–	7.8 µM
Cc1cc(-c2cn[nH]c2-c2cccc(OCc3cccc(C#N)c3)c2)cc(C)n1	CLSI broth microdilution	AR-0549	–	2 µg/mL
[Cl][Fe]([Cl])[Cl]	–	–	24 h, 37 °C	> 1600 µM
CN[C@@H]1[C@@H](O[C@H]2O[C@H](CO)[C@@H](N)[C@H](O)[C@H]2O)OC2C[C@@H](N)[C@@H](O[C@H]3[C@H](O)[C@@H](O)[C@H](N)C[C@@H]3N)OC2[C@@H]1O (stereo partly shown)	broth microdilution	ATCC 25922	ambient air	8 µg/mL
CC1CCC(C(C)C)C(OC2=C(Cl)C(=O)c3ccccc3C2=O)C1 (stereo not shown)	broth microdilution	MTCC 405	–	12 µg/mL
CNC(C)C1CCC(N)C(OC2C(N)CC(N)C(OC3OCC(C)(O)C(NC)C3O)C2O)O1 (stereo not shown)	bacterial growth	ESBL clinical isolate JMI 1043856	–	0.5 µg/mL
CC(C)(O/N=C(\C(=O)N[C@@H]1C(=O)N2C(C(=O)[O-])=C(C[N+]3(CCNC(=O)c4ccc(O)c(O)c4Cl)CCCC3)CS[C@H]12)c1csc(N)n1)C(=O)O	–	DSM 1116	–	0.1 µM
C[C@H]1[C@H](NC(=O)/C(=N\OC(C)(C)C(=O)O)c2csc(N)n2)C(=O)N1S(=O)(=O)O	agar dilution	16-1 ESBL	–	≤ 0.03 µg/mL
CC(C)Oc1c(NC(=O)c2ccc(NC(=O)[C@H](CC(N)=O)NC(=O)c3cc(F)c(/N=N/c4c(F)cccc4F)c(F)c3)cc2)ccc(C(=O)N/N=C/c2ccc(C(=O)O)s2)c1O	–	BW25113	dark ground state	> 6.4 µg/mL
N=C(N)c1ccccc1OCCCCCOc1ccccc1C(=N)N	–	BW25113	compound alone, rifampicin checkerboard	> 200 µg/mL
CC1(C)S[C@@H]2[C@H](NC(=O)[C@H](N)c3ccccc3)C(=O)N2[C@H]1C(=O)O	–	ATCC BAA-196, resistant	18 h, 37 °C, dark	> 128 µM
OC(Cn1cncn1)(Cn1cncn1)c1ccc(F)cc1F	–	drug-resistant clinical isolate, MHB	24 h, 37 °C	128 µM
Cc1c(CN(C)C(=O)/C=C/c2cnc3c(c2)CC(CCN)C(=O)N3)oc2ccccc12.Cl (stereo not shown)	broth microdilution	AR-0346	–	4 µg/mL
N=C(N)c1ccc(OCCCCCCCCCOc2ccc(C(=N)N)cc2)cc1	–	BW25113	compound alone, rifampicin checkerboard	> 25 µg/mL

Structure (SMILES)	test	system	conditions	MIC
CO[C@H]1/C=C/O[C@@]2(C)Oc3c(C)c(OC(=O)c4ccco4)c4c(c3C2=O)C(=O)C(C2CC(C)OC(C)C2)=C(NC(=O)/C(C)=C/C=C/[C@H](C)[C@H](O)[C@@H](C)[C@@H](O)[C@@H](C)[C@H](OC(C)=O)[C@H]1C)C4=O (stereo partly shown)	–	ATCC 25922	–	20 µM
CO[C@H]1/C=C/O[C@@]2(C)Oc3c(C)c(O)c4c(O)c(c(/C=N/N5CCN(C)CC5)c(O)c4c3C2=O)NC(=O)/C(C)=C\C=C\[C@H](C)[C@H](O)[C@@H](C)[C@@H](O)[C@@H](C)[C@H](OC(C)=O)[C@@H]1C	broth microdilution OD600	Mueller-Hinton broth	24 h, 37 °C, with: 4.5 mM KCl	16 µM
CO[C@H]1/C=C/O[C@@]2(C)Oc3c(C)c(O)c4c(c3C2=O)C2=NC3(CCN(CC(C)C)CC3)NC2=C(NC(=O)/C(C)=C\C=C\[C@H](C)[C@H](O)[C@@H](C)[C@@H](O)[C@@H](C)[C@H](OC(C)=O)[C@@H]1C)C4=O	–	ATCC 25922	–	5 µM
O=C(N[C@H](CO)[C@H](O)c1ccc([N+](=O)[O-])cc1)C(Cl)Cl	broth microdilution	ATCC 25922	5% CO2	4 µg/mL
CC[C@H]1OC(=O)C[C@@H](O)[C@H](C)[C@@H](O[C@@H]2O[C@H](C)[C@@H](O)[C@H](N(C)C)[C@H]2O)[C@@H](CCN2C[C@H](C)C[C@H](C)C2)C[C@@H](C)C(=O)/C=C/C(C)=C/[C@@H]1CO[C@@H]1O[C@H](C)[C@@H](O)[C@@H](OC)[C@H]1OC	–	ATCC 25922	–	320 µM
O=[N+]([O-])c1ccc2[nH]c(CNCC34CC5CC(CC(C5)C3)C4)nc2c1	–	ATCC 25922	–	> 128 µg/mL
CC1(C)S[C@@H]2[C@H](/N=C/N3CCCCCC3)C(=O)N2[C@H]1C(=O)O	–	ATCC 25922	–	1.3 µM
N=C(N)c1ccc(OCc2cccc(COc3ccc(C(=N)N)cc3)c2)cc1	–	552100	in combination, checkerboard, with: rifampicin	12.5 µg/mL
CO[C@H]1C[C@H](O[C@H]2[C@H](C)[C@@H](O[C@@H]3O[C@H](C)C[C@H](N(C)C)[C@H]3OC(C)=O)[C@@H](C)C[C@@]3(CO3)C(=O)[C@H](C)[C@@H](OC(C)=O)[C@@H](C)[C@@H](C)OC(=O)[C@@H]2C)O[C@@H](C)[C@@H]1OC(C)=O	–	ATCC 25922	–	640 µM
CC(C)Oc1c(NC(=O)c2ccc(N3C(=O)C[C@H](NC(=O)c4cc(F)c(/N=N/c5c(F)cccc5F)c(F)c4)C3=O)cc2)ccc(C(=O)N/N=C/c2c(Cl)cncc2Cl)c1O	–	BW25113	after 1 h irradiation at 450 nm	> 6.4 µg/mL
CO[C@@H]1[C@@H](O[C@@H]2O[C@H](C)[C@@H](O[C@H]3C[C@@](C)(O)[C@@H](OC(=O)CC(C)C)[C@H](C)O3)[C@H](N(C)C)[C@H]2O)[C@@H](CC=O)C[C@@H](C)[C@@H](O)/C=C/C=C/C[C@@H](C)OC(=O)C[C@H]1OC(C)=O	–	ATCC 25922	–	640 µM
NCC[C@H](O)C(=O)N[C@@H]1C[C@H](N)[C@@H](O[C@H]2O[C@H](CN)[C@@H](O)[C@H](O)[C@H]2O)[C@H](O)[C@H]1O[C@H]1O[C@H](CO)[C@@H](O)[C@H](N)[C@H]1O	broth microdilution	ATCC 25922	5% CO2	8 µg/mL
NC[C@H]1O[C@H](O[C@H]2[C@H](O)[C@@H](O[C@H]3O[C@H](CO)[C@@H](O)[C@H](N)[C@H]3O)[C@H](N)C[C@@H]2N)[C@H](N)C[C@@H]1O	broth microdilution	–	18 h	4 µg/mL
Cc1c(CN(C)C(=O)/C=C/c2cnc3c(c2)CC(NC(=O)OC(C)(C)C)C(=O)N3)oc2ccccc12 (stereo not shown)	broth microdilution	AR-0114	–	> 32 µg/mL
C[C@@H](O)[C@H]1C(=O)N2C(C(=O)O)=C(S[C@@H]3CN[C@H](C(=O)N(C)C)C3)[C@H](C)[C@H]12	–	25922	–	< 2 µg/mL
CN[C@@H]1[C@H](O[C@H]2[C@H](O[C@H]3[C@H](O)[C@@H](O)[C@H](N=C(N)N)[C@@H](O)[C@@H]3N=C(N)N)O[C@@H](C)[C@]2(O)C=O)O[C@@H](CO)[C@H](O)[C@H]1O	broth microdilution	G92	18 h	64 µg/mL
CC1(C)S[C@@H]2[C@H](NC(=O)[C@H](N)c3ccccc3)C(=O)N2[C@H]1C(=O)O	–	ATCC 25922	16 h	8 µg/mL
